Measured values of several laboratories.
Parts stem from different laboratories: compare values within a part only. Changes are numbered by the printed parent chain.

Sample 1
Target: ABI1, truncated, D143A, DHFR fusion (Arabidopsis thaliana)
Technique: DHFR PCA, deep sequencing
Matrix: yeast
Setting: methotrexate growth selection, single substitutions
Added: (+)-ABA 0 µM
Relative to: wild-type fitted maximum
Direction: higher = stronger binding
Starting sequence: PYL1, truncated, DHFR fusion (Arabidopsis thaliana); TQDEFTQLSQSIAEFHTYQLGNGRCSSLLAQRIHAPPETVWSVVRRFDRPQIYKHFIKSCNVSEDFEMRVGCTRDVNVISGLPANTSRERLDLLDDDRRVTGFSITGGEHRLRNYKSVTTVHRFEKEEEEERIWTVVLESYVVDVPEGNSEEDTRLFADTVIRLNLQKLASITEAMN; partner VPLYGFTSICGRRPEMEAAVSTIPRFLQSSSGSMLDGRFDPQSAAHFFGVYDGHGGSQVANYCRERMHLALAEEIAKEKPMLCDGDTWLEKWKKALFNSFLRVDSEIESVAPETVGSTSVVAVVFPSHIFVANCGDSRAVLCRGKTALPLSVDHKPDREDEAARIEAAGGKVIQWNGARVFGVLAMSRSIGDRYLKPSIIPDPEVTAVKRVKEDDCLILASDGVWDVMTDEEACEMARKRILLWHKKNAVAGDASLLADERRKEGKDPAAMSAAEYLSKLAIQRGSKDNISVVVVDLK
Substitution | relative binding score [%]
F15W | 27.9
C25T | 51.6
R111S | 5.22
A84W | 91.2
T160I | -2.48
E152W | 0.0061
G81H | 4.85
G23Q | 6.82
T120N | -6.16

Sample 2
Target: RNA binding protein fox-1 homolog 2, RRM domain, GST-SBP tag (RBFOX2, Homo sapiens, UniProt O43251-10, residues 100-194)
Technique: RNA Bind-n-Seq
Form: RNA
Matrix: in vitro
Tested at: 365 nM
Setting: natural RNA segment, single round, ends assumed
Relative to: no-protein control
Direction: higher = stronger binding
Constant ends, left off below: GGGAGUUCUACAGUCCGACGAUC … UGGAAUUCUCGGGUGCCAA
Residues (chain): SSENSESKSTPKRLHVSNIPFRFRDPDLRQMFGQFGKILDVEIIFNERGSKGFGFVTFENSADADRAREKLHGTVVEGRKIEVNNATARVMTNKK
Sequence | RBNS enrichment (R)
GGAUUUAAUGCACUUGACGUGGAUUAAGUUAUUCUGAGCAUGUUACUGUAAUGAUUCUCAAAUUAACUGUAUUAGUGUAAGCUUUGUCACUAUGCGCUAAACGUAAUCCU | 0.899
UUGCCAUCCUAUUCUUGGCUCAUCCAGUGUUAAUGCACUUUCCACAGUUGGACGUGGUGUUAGUUUUAGACAAACGGGUUUCAUUAUUAUUCCUCUUUGCCUUCUCAAUG | 0.405
CAUUUCCGUUUGCAGUUCUACUAAAGACACUCUGAGAAAUAUUCCGAGUUUCGUAUUAACCUUUCCUGUCCAUGUAACAACUUCAUGACCAUUACUGCAUUGUCAAAUUC | 0.297
UCCCUGUGGAAUUGCCGAGAAAUCUAGCACCUUGCAUGCUGGAUCUGGGCUGCGGGGAGGCUCUUUUUCUCCCUGGCCUCCAGUGCCCACCAGGAGGAUCUGCGCACGGU | 3.25
UCUCCAUCUUGCUAGGAAGAACCAACCCACAAAACAACGCCAUCACUGGAAUCUCCCAUCGCUUUAGUGAGCCAUUGUCGUAUGUCUAGUAAACUUUGUACUGAUUCAAA | 0.635
UGUUCUUGAACAGAUACUAUGUCUAUAACUCAGAUCGCACCAAACUUCCUGUGGUGACAGACUCUUCCAUUUCAGACUGGUUUUAACUUAUCCCAGCUUUACAAAAACUC | 0.311
AAAAGAAAUAAAAUUGAACCAAAGGAUUUUCCCAGAAAAAAACAAGAAAGCAGUUUUAGAAGGCCAUGACUCAAUUCUUAGGUUUGUAUGCUUAAACAUCUUAGGAAUUU | 0.687
UCUUGGCAGAACUUUCUAAAGCUACUGCUUUCAAUAGAUUCCAGCCGCAUAUUCCCAUGGGCAUAUUCCCAUGCUUUCUCAAAUAGACUACUGUGAUAAAAAUGAACUCA | 0.314
GGCUCACCUUGCAGAACCAGUGACAAUCUUAUGAGUAUAAUGAACACUCAGCCAGGCCUGUCAUGAUUGGCUUUAUUUCUUUCAUCAUUCAUAAAAGUUUGCAUGUGUUU | 4.85
CUGGUAUCCUGCCAAGCCUGGUUGUAAUUUGUAACCAUUUUCUAUUUGUGCAAACUCUGUAAAUAUGUGUUUAAACAAAUGUAAUAUUUUGUACAAGAUACACUGGAGAA | 0.311
CAGUAGGCAUAAUUCAGCAACAAACAAUCUUCCUUUGGGAGAAACCUGUUCAUUCCAAUCUUCUAAUUACAGUGGUUCCUAUCUCAGGGAUACUGGACUUUCUGACGCAG | 0.252
GGGUAGUCCACUCAUAUUCUUGCAGGGUGAGUCCAUGCUCAGGAGAAUGCGGUCCACCUUUCUAUGUACUCUAGCUUCCCUCUCUUCAGGUUGAUAUAGCGACAUUACCU | 0.641

Sample 3
Target: Histone acetyltransferase KAT6A, winged helix 1, GST fusion (KAT6A, Homo sapiens, UniProt Q92794, residues 1-85)
Technique: protein binding microarray
Form: double-stranded DNA, one strand shown
Matrix: in vitro
Tested at: not given
Setting: 8-mer, flanks averaged, mean of 2 arrays, mostly near background
Relative to: not given
Direction: higher = stronger binding
Target sequence (chain): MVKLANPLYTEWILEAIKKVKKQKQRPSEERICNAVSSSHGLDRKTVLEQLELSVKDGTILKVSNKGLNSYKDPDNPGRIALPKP
Sequence | E-score
GAGATTGA | -0.187
AGGGTATC | -0.126
CTCGTGGC | 0.0291
GACCGTGC | 0.239
ACGCATAG | 0.195
GACAATCA | -0.0668
ATCTCTTA | -0.135
GAGTATGC | 0.147
AATTTTTA | -0.123
GCTATTAA | -0.0567
GGGTGTAC | 0.0511
ATGATTGC | -0.0112
AGCATACT | -0.0351
GGCCCCTA | 0.107
GAAAGTCC | -0.013
AAAATACC | -0.0316
CAGCCGGA | 0.0707

Further values, each from its own experiment
Substance | target | test | test system | conditions | how to read | quantity | value
PhoQ, residues 284 288 289 292 302 303 GANMMA | PhoP, residues 12 14 15 18 19 NYFTV (Escherichia coli, UniProt P23836) | Sort-seq, item: YFP reporter | E. coli | PhoQ-PhoP variant library, added: 10 µM Mg2+ | relative to: high Mg2+ state, higher = stronger signaling | fold induction | 1.72

For quick reference, copied from above (sample 1):
Substitution | relative binding score [%]
A84W | 91.2
T160I | -2.48
E152W | 0.0061
G81H | 4.85
